Measurements of several laboratories.
Compare with care: the assays were run in different laboratories. “And” joins repeats or separate records; there may be more than shown. ± gives the spread as reported.

`CN1C(=O)[C@]23SS[C@@]1(C)C(=O)N2[C@H]1Nc2ccccc2[C@@]1([C@@]12c4ccccc4N[C@@H]1N1C(=O)[C@@]4(C)SS[C@]1(C(=O)N4C)[C@H]2O)[C@@H]3O` has an IC50 of greater than 10 µM (KMT2C (Homo sapiens, UniProt Q8NEZ4); methyltransferase activity, inhibitor; with: 1 µM [3H]SAM).
`CC[C@H](C)[C@H](NC(=O)[C@H](CC(N)=O)NC(=O)[C@H](Cc1c[nH]cn1)NC(=O)[C@@H](NC(=O)[C@H](CC(C)C)NC(=O)[C@H](CCCNC(=N)N)NC(=O)[C@H](CCSC)NC(=O)[C@H](C)N)[C@@H](C)O)C(=O)N[C@@H](Cc1ccccc1)C(=O)N[C@@H](Cc1ccccc1)C(=O)N[C@@H](CC(N)=O)C(=O)N[C@@H](Cc1ccccc1)C(=O)N[C@@H](Cc1ccccc1)C(=O)N[C@@H](CCCCN)C(=O)N[C@@H](CCCNC(=N)N)C(=O)N[C@@H](CCCNC(=N)N)C(=O)O` gave an IC50 of greater than 10 µM (histidine kinase ComD (Streptococcus pneumoniae serotype 4, UniProt A0A0H2US84); reporter gene, antagonist; Streptococcus pneumoniae, TIGR4 comX::lacZ; 30 min, 37 °C, with: CSP2 250 nM).
With `O=C(O)Cc1ccccc1OC(=O)NCCCCCn1ccc2ccc(F)cc21` the IC50 was greater than 10 µM (Cholinesterase (BCHE, Equus caballus, UniProt P81908); enzyme activity, inhibitor, HPLC).
`O=C1C=C(N(Cc2ccc(Cl)nc2)CC(F)F)CO1` has an IC50 of 0.00238 ± 0.00193 µM (nicotinic acetylcholine receptor Musca domestica; binding, displacement, radioligand displacement; housefly head membranes; with: [3H]imidacloprid).
For `O=C1Nc2ccc3ncsc3c2/C1=C/Nc1ccc(S(=O)(=O)Nc2ccccn2)cc1`, the IC50 was 0.33 µM (Putative glycogen synthase kinase (Leishmania major, UniProt Q4QE15, D105E); enzyme activity, inhibitor; 90 min, 30 °C, with: ATP 2 µM).
`CCCC(O)C(C)C(=O)NC/C=C\CC(C)C(O)C(C)C1C/C=C\CC(C)C(O)Cc2cc(OC)cc(O)c2C(=O)O1` (centres unmarked) has an IC50 of roughly 0.075 µM (ATP2/ATP1 (Saccharomyces cerevisiae, UniProt P00830+P07251); ATPase activity, inhibitor; detergent-solubilised enzyme).
`CCCCOC(=O)c1cccc(NC(=O)COc2ccc(Cl)cc2Cl)c1` gave an IC50 of 6.93 µM (MAPT (Homo sapiens, UniProt P10636, P618L); amyloid aggregation, inhibitor, fluorescence).
The IC50 of `C=CC=O` is reported as 0.231 µM (Thioredoxin reductase 2, mitochondrial (Txnrd2, Mus musculus, UniProt Q9JLT4); enzyme activity, inhibitor; 10 min, pH 7, 22 °C, pre-reduced enzyme, with: Trx 150 µM).
With `COc1ccc(NC(=O)N2CCCN3[C@H](CO)[C@H](c4ccc(C#Cc5ccccc5)cc4)[C@@H]3C2)cc1` the IC50 was 0.366 µM (Phenylalanine--tRNA ligase alpha subunit (Plasmodium falciparum, UniProt Q8I246); aminoacylation activity, inhibitor).
`C/C=C1\NC(=O)[C@@H](NC(=O)[C@@H](NC(=O)[C@H](C)NC(=O)C/C(C)=C/Cl)C(C)C)[C@@H](C)OC(=O)[C@H](C(C)C)NC(=O)[C@H](Cc2ccc(O)cc2)N(C)C(=O)[C@H](Cc2ccccc2)N2C(=O)[C@H](CC[C@H]2O)NC1=O` gave an IC50 of 0.0876 µM (Proteinase K (PROK, Engyodontium album, UniProt P06873); enzyme activity, inhibitor, fluorescence; pH 7.4).
With `O=C(Nc1ccc(F)cc1)Oc1ccc[nH]c1=O` the IC50 was 3.57 µM (Replicase polyprotein 1ab, main protease (Feline coronavirus, UniProt Q98VG9); enzyme activity, inhibitor, FRET).
`FC(F)(F)c1cc(-c2nnc(Sc3cc(Cl)nc(Sc4ccccc4)n3)[nH]2)cc(C(F)(F)F)c1` gave an IC50 of 1.5 to 2 µM and 2 µM (secA (Escherichia coli, UniProt P10408); protein translocation, inhibitor; 773 inverted membranes; with: proOmpA).
`CCC(=O)Nc1cc(Nc2cc(NC3CC3)n3ncc(C#N)c3n2)ccc1N(C)CCN1CCCCC1` gave an IC50 of 0.251 µM (CSNK2A2 (Homo sapiens, UniProt P19784); target engagement in cells, BRET).
`Cl.Cl.Cl.Cl.Cl.Cl.N.N.N.N.N.N.N.N.N.N.N.N.N.N.[O-2].[O-2].[Ru+3].[Ru+3].[Ru+4]` gave an IC50 of 1 µM (Trpv1 (Rattus norvegicus, UniProt O35433); transporter uptake, inhibitor, radiometric).
For `c1cc(OC[C@@H]2CCCN2)ccn1`, the IC50 was 303 µM (Neuronal acetylcholine receptor; alpha4/beta2 (Rattus norvegicus, UniProt P09483+P12390); ligand displacement, radioligand; cell membranes).
For `CCCCCCCC(=O)SCC/C=C/[C@@H]1CC(=O)NCc2nc(cs2)C2=N[C@@](C)(CS2)C(=O)N[C@@H](C(C)C)C(=O)N1`, the IC50 was greater than 3 µM (HDAC1 (Homo sapiens, UniProt Q13547); inhibitor).
With `O=C(O)C(=O)CBr` the IC50 was 33 µM (HDAC3 (Homo sapiens, UniProt O15379); enzyme activity, inhibitor).

For quick reference, copied from above:
The IC50 of `C=CC=O` is reported as 0.231 µM (Thioredoxin reductase 2, mitochondrial (Txnrd2, Mus musculus, UniProt Q9JLT4); enzyme activity, inhibitor; 10 min, pH 7, 22 °C, pre-reduced enzyme, with: Trx 150 µM).
With `COc1ccc(NC(=O)N2CCCN3[C@H](CO)[C@H](c4ccc(C#Cc5ccccc5)cc4)[C@@H]3C2)cc1` the IC50 was 0.366 µM (Phenylalanine--tRNA ligase alpha subunit (Plasmodium falciparum, UniProt Q8I246); aminoacylation activity, inhibitor).
